Experimental data pooled from the literature.
Compare with care: the assays were run in different laboratories. ± gives the spread as reported.

SMILES = COC(=O)C1CN1S(=O)(=O)c1ccccc1 (stereo not drawn); cell line = Caco-2; test = cell growth or viability, MTT; conditions = 48 h; IC50 = 110 µM
SMILES = CCCC[C@@H]1NC(=O)CN(S(C)(=O)=O)CCNC(=O)[C@H](CCCCN)NC(=O)[C@H](CC(C)C)NC(=O)[C@H](CCCCN)NC(=O)[C@H](CC(C)C)NC(=O)[C@H](CCCCN)NC(=O)COC[C@H]2CCCN2C(=O)[C@H](Cc2c[nH]c3ccccc23)NC(=O)[C@H](C)NC(=O)[C@H](C(C)C)NC(=O)[C@H](C)NC1=O; cell line = NCI-H929; test = viability, TO-PRO-3 staining, flow cytometry; IC50 = 11.5 µM
SMILES = C[C@@H](O)[C@H](NC(=O)[C@H](CCCNC(=N)N)NC(=O)[C@H](CCCNC(=N)N)NC(=O)[C@H](CCCNC(=N)N)NC(=O)[C@@H]1CCCN1C(=O)[C@@H](N)CO)C(=O)N1CCC[C@H]1C(=O)N[C@@H](CO)C(=O)N1CCC[C@H]1C(=O)N[C@@H](CCCNC(=N)N)C(=O)N[C@@H](CCCNC(=N)N)C(=O)N[C@@H](CCCNC(=N)N)C(=O)N[C@@H](CCCNC(=N)N)C(=O)N[C@@H](CO)C(=O)N[C@@H](CCC(N)=O)C(=O)N[C@@H](CO)C(=O)N1CCC[C@H]1C(=O)N[C@@H](CCCNC(=N)N)C(=O)N[C@@H](CCCNC(=N)N)C(=O)N[C@@H](CCCNC(=N)N)C(N)=O; cell line = SK-BR-3; test = cell viability, CellTiter-Blue; conditions = 24 h, serum-free medium; IC50 = > 100 µM
SMILES = Cc1cc(C)c(-n2c[n+](-c3c(C)cc(C)cc3C)c3c2-c2cccc4cccc-3c24)c(C)c1.[Cl][Pd-]([Cl])[CH2]C=Cc1ccccc1; cell line = PSN1; test = cell growth or viability, MTT; conditions = 72 h; IC50 = 5 µM
SMILES = O=C(Cc1ccc2ccccc2c1)N[C@H](Cc1ccccc1)C(=O)N[C@H](Cc1ccccc1)C(=O)N[C@H](Cc1ccc(O)cc1)C(=O)N[C@H](Cc1ccc(O)cc1)C(=O)O; cell line = SAOS-2; test = cell growth or viability, MTT; IC50 = > 500 µg/mL
SMILES = C[C@H]1C(OCCCCCCCCCCC[P+](c2ccccc2)(c2ccccc2)c2ccccc2)O[C@@H]2O[C@@]3(C)CCC4[C@H](C)CCC1[C@]42OO3 (stereo partly drawn); cell line = OVCAR-3; test = cell growth or viability, MTT; conditions = 72 h; IC50 = 0.117 µM
SMILES = COc1c(O)c(-c2c(O)c(OC)c(OC)c3c2ccc2cc(O)ccc23)c2c(c1OC)-c1ccc(O)cc1CC2; cell line = EA.hy 926; test = cell growth or viability, CCK-8; conditions = 24 h; IC50 = 11.3 µM
SMILES = COc1cc(-c2oc3cc(O)c(OC)c(O)c3c(=O)c2OC)ccc1O; cell line = human Neutrophil; test = superoxide release, inhibitor, absorbance; IC50 = 4.76 µM
SMILES = CC[C@H](C)[C@H](NC(=O)[C@@H](N)Cc1ccc(O)cc1)C(=O)N[C@@H](Cc1ccccc1)C(=O)N[C@@H](CC(N)=O)C(=O)N[C@@H](CC(C)C)C(=O)O; cell line = T47D; test = cell proliferation, tetrazolium; IC50 = 7e-05 µM
SMILES = CNC(=O)c1cc(Oc2ccc(NC(=O)c3ccc(-c4ccc(COC(=O)CCC(=O)OC5OC6OC7(C)CCC8C(C)CCC(C5C)C68OO7)cc4)cn3)cc2)ccn1 (stereo not drawn); cell line = Hep3B; test = cell growth or viability, MTT; conditions = 72 h; IC50 = 9.88 µM
SMILES = Cc1cc(C)c(N2CCN(c3c(C)cc(C)cc3C)C2=[Se])c(C)c1.[Cl][Ag]; cell line = A2780 ADR; test = MTT; conditions = 72 h; IC50 = 0.7 ± 0.1 µM
SMILES = CNC(=O)c1cc(Oc2ccc(NC(=O)c3ccc(-c4ccccc4OC(=O)CCC(=O)OC4OC5OC6(C)CCC7C(C)CCC(C4C)C57OO6)cn3)cc2)ccn1 (stereo not drawn); cell line = Huh-7; test = cell growth or viability, MTT; conditions = 72 h; IC50 = 5.83 µM
SMILES = C=C(C(=O)O)[C@@H]1CC[C@@]2(C)CCC(=O)C(C)=C2[C@H]1O; cell line = human Neutrophil; test = elastase release, inhibitor; IC50 = > 10 µM
SMILES = Cc1cc(Nc2nc(C[C@@]3(C(=O)O)CCN(Cc4cccc(Cl)c4F)[C@H](C)C3)cc(C)c2F)[nH]n1; cell line = sensitive lung cancer lines; test = cell proliferation; conditions = mean; IC50 = 0.068 µM
SMILES = Cc1cc(C)c(-n2ccn(-c3c(C)cc(C)cc3C)c2=[Se])c(C)c1.[Cl][Ag]; cell line = A2780 ADR; test = MTT; conditions = 72 h; IC50 = 0.3 ± 0.03 µM
SMILES = CSCC[C@H](N)C(=O)N[C@@H](C)C(=O)N[C@@H](Cc1c[nH]c2ccccc12)C(=O)N[C@@H](Cc1c[nH]cn1)C(=O)N[C@@H](CC(=O)O)C(=O)N[C@@H](CC(=O)O)C(=O)N[C@@H](CCC(=O)O)C(=O)N[C@@H](CCC(=O)O)C(=O)N[C@@H](Cc1ccccc1)C(=O)N[C@@H](C)C(=O)N[C@@H](CCCNC(=N)N)C(=O)N[C@@H](CCCNC(=N)N)C(=O)N[C@@H](CCCNC(=N)N)C(=O)N[C@@H](CCCNC(=N)N)C(=O)NCCCCCC(=O)NCCCCC(NC(=O)CCCCCNC(=O)[C@H](CCCNC(=N)N)NC(=O)[C@H](CCCNC(=N)N)NC(=O)[C@H](CCCNC(=N)N)NC(=O)[C@H](CCCNC(=N)N)NC(=O)[C@H](C)NC(=O)[C@H](Cc1ccccc1)NC(=O)[C@H](CCC(=O)O)NC(=O)[C@H](CCC(=O)O)NC(=O)[C@H](CC(=O)O)NC(=O)[C@H](CC(=O)O)NC(=O)[C@H](Cc1c[nH]cn1)NC(=O)[C@H](Cc1c[nH]c2ccccc12)NC(=O)[C@H](C)NC(=O)[C@@H](N)CCSC)C(=O)NCCCCC(NC(=O)C(CCCCNC(=O)CCCCCNC(=O)[C@H](CCCNC(=N)N)NC(=O)[C@H](CCCNC(=N)N)NC(=O)[C@H](CCCNC(=N)N)NC(=O)[C@H](CCCNC(=N)N)NC(=O)[C@H](C)NC(=O)[C@H](Cc1ccccc1)NC(=O)[C@H](CCC(=O)O)NC(=O)[C@H](CCC(=O)O)NC(=O)[C@H](CC(=O)O)NC(=O)[C@H](CC(=O)O)NC(=O)[C@H](Cc1c[nH]cn1)NC(=O)[C@H](Cc1c[nH]c2ccccc12)NC(=O)[C@H](C)NC(=O)[C@@H](N)CCSC)NC(=O)CCCCCNC(=O)[C@H](CCCNC(=N)N)NC(=O)[C@H](CCCNC(=N)N)NC(=O)[C@H](CCCNC(=N)N)NC(=O)[C@H](CCCNC(=N)N)NC(=O)[C@H](C)NC(=O)[C@H](Cc1ccccc1)NC(=O)[C@H](CCC(=O)O)NC(=O)[C@H](CCC(=O)O)NC(=O)[C@H](CC(=O)O)NC(=O)[C@H](CC(=O)O)NC(=O)[C@H](Cc1c[nH]cn1)NC(=O)[C@H](Cc1c[nH]c2ccccc12)NC(=O)[C@H](C)NC(=O)[C@@H](N)CCSC)C(N)=O (stereo partly drawn); cell line = BMMs from C57BL/6 mice; test = osteoclast differentiation; conditions = 3 days, together with: RANKL; IC50 = 0.14 µM
SMILES = Cc1nn(-c2ccccc2)c(O)c1C(c1ccc([N+](=O)[O-])cc1)c1c(C)nn(-c2ccccc2)c1O; cell line = Ishikawa; test = cell growth or viability, MTT; conditions = 48 h; IC50 = > 40 µM
SMILES = O=C1CC2(C1)C(=O)[O][Pt]1([Cl])([O]C(=O)C(Cl)Cl)([NH][C@@H]3CCCC[C@H]3[NH]1)[O]C2=O; cell line = SGC-7901/CDDP cisplatin-resistant; test = cell viability, MTT; conditions = 48 h; IC50 = 120 ± 6.74 µM
SMILES = CC[C@H](C)[C@H](NC(=O)[C@H](CCCCN)NC(=O)[C@@H](NC(=O)[C@H](CCC(N)=O)NC(=O)[C@H](CCCNC(=N)N)NC(=O)[C@H](CC(C)C)NC(=O)CNC(=O)[C@H](Cc1ccccc1)NC(=O)CNC(=O)[C@H](Cc1ccc(O)cc1)NC(=O)CNC(=O)[C@H](CCCCN)NC(=O)[C@@H](NC(=O)[C@H](Cc1ccccc1)NC(=O)[C@@H](NC(=O)[C@H](CC(=O)O)NC(=O)[C@H](CCCNC(=N)N)NC(=O)[C@H](C)NC(=O)[C@H](CO)NC(=O)[C@H](CCCCN)NC(=O)CNC(=O)[C@H](CC(C)C)NC(=O)[C@H](CC(=O)O)NC(=O)[C@H](C)NC(=O)[C@H](Cc1ccc(O)cc1)NC(=O)[C@@H](NC(=O)[C@@H]1CCCN1C(=O)[C@@H]1CCCN1C(=O)[C@@H](NC(=O)[C@H](C)NC(=O)[C@@H](N)CCSC)C(C)C)[C@@H](C)O)C(C)C)[C@@H](C)O)[C@@H](C)CC)C(=O)N[C@@H](Cc1c[nH]c2ccccc12)C(=O)N[C@@H](Cc1ccccc1)C(=O)N[C@@H](CCC(N)=O)C(=O)N[C@@H](CC(N)=O)C(=O)N[C@@H](CCCNC(=N)N)C(=O)N[C@@H](CCCNC(=N)N)C(=O)N[C@@H](CCSC)C(=O)N[C@@H](CCCCN)C(=O)N[C@@H](Cc1c[nH]c2ccccc12)C(=O)N[C@@H](CCCCN)C(=O)N[C@@H](CCCCN)C(=O)O; cell line = CLL patient PBMCs; test = cell death, PI staining flow cytometry; conditions = 90 min, room temperature, serum-free medium; IC50 = 3.2 µM
SMILES = Cc1nn(-c2ccccc2)c(O)c1C(c1ccccc1[N+](=O)[O-])c1c(C)nn(-c2ccccc2)c1O; cell line = Ishikawa; test = cell growth or viability, MTT; conditions = 48 h; IC50 = > 40 µM
SMILES = CNC(=O)c1cc(Oc2ccc(NC(=O)c3ccc(-c4cccc(COC(=O)CCC(=O)OC5OC6OC7(C)CCC8C(C)CCC(C5C)C68OO7)c4)cn3)cc2)ccn1 (stereo not drawn); cell line = Hep3B; test = cell growth or viability, MTT; conditions = 72 h; IC50 = 5.35 µM
SMILES = CC(C)C[C@@H](NC(=O)[C@@H](CC(C)C)NC(=O)[C@@H](CO)NC(=O)[C@@H](Cc1c[nH]cn1)NC(=O)[C@@H](CC(C)C)NC(=O)[C@@H](CO)NC(=O)[C@@H](CCCNC(=N)N)NC(=O)[C@@H](CO)NC(=O)[C@H](N)Cc1ccccc1)C(=O)NCC(=O)NCCCCCC(=O)N[C@H](CCCNC(=N)N)C(=O)N[C@H](CCCNC(=N)N)C(=O)N[C@H](CCCNC(=N)N)C(=O)N[C@H](CCCNC(=N)N)C(=O)N[C@H](CCCNC(=N)N)C(=O)N[C@H](CCCNC(=N)N)C(=O)N[C@H](CCCNC(=N)N)C(=O)N[C@H](CCCNC(=N)N)C(=O)NCC(=O)N[C@@H](CS)C(=O)O; cell line = KG-1a; test = cell viability, MTT; conditions = 1 h exposure then 23 h, serum-free exposure; IC50 = 2 µM
SMILES = COc1ccc(C(c2c(C)nn(-c3ccccc3)c2O)c2c(C)nn(-c3ccccc3)c2O)cc1; cell line = various human cancer cell lines; test = cell growth, MTT; IC50 = 5.45 to 18.3 µM
SMILES = CC(C)OC(=O)C(n1cccn1)n1cccn1.F[P-](F)(F)(F)(F)F.[Cu+].c1ccc(P(c2ccccc2)c2ccccc2)cc1; cell line = PSN1; test = cell growth or viability, MTT; conditions = 72 h; IC50 = 17.3 µM

Repeated from above:
SMILES = Cc1cc(C)c(-n2c[n+](-c3c(C)cc(C)cc3C)c3c2-c2cccc4cccc-3c24)c(C)c1.[Cl][Pd-]([Cl])[CH2]C=Cc1ccccc1; cell line = PSN1; test = cell growth or viability, MTT; conditions = 72 h; IC50 = 5 µM
SMILES = O=C(Cc1ccc2ccccc2c1)N[C@H](Cc1ccccc1)C(=O)N[C@H](Cc1ccccc1)C(=O)N[C@H](Cc1ccc(O)cc1)C(=O)N[C@H](Cc1ccc(O)cc1)C(=O)O; cell line = SAOS-2; test = cell growth or viability, MTT; IC50 = > 500 µg/mL
SMILES = C[C@H]1C(OCCCCCCCCCCC[P+](c2ccccc2)(c2ccccc2)c2ccccc2)O[C@@H]2O[C@@]3(C)CCC4[C@H](C)CCC1[C@]42OO3 (stereo partly drawn); cell line = OVCAR-3; test = cell growth or viability, MTT; conditions = 72 h; IC50 = 0.117 µM
SMILES = COc1c(O)c(-c2c(O)c(OC)c(OC)c3c2ccc2cc(O)ccc23)c2c(c1OC)-c1ccc(O)cc1CC2; cell line = EA.hy 926; test = cell growth or viability, CCK-8; conditions = 24 h; IC50 = 11.3 µM
